{"data": "Measured values collected from several papers", "note": "Each numbered part is a random draw from the data of one study; scales do not carry over between parts. Changes are numbered by the printed parent chain."}
{"data": "Block 1", "target": "Centromere-binding protein 1, full length, N-terminal tag (CBF1, Saccharomyces cerevisiae, UniProt P17106, residues 1-351)", "method": "protein-binding microarray", "form": "double-stranded DNA, one strand shown", "medium": "in vitro", "concentration": "0.8 µM", "setting": "whole 60-bp probe, no competitor", "direction": "higher = stronger binding", "UniProt P17106, sequence (whole entry, looked up)": "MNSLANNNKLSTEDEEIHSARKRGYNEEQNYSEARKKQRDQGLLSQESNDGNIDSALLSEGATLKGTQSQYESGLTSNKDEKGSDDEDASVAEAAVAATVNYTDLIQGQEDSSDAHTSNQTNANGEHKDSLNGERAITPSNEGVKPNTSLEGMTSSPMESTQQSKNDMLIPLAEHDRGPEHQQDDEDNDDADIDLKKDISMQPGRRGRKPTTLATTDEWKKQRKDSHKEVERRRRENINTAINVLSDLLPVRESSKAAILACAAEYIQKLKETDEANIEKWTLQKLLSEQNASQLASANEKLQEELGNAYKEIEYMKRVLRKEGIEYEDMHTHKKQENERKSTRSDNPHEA"}
{"Strand": "CTATAGAACGCTGATCAGCTGTGTATAGTTTAATTCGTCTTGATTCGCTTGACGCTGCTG", "fluorescence intensity [a.u.]": 640}
{"Strand": "GAATGATTTTTTGCTCACGTGCTCTGCGGGTAATAGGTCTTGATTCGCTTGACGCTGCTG", "fluorescence intensity [a.u.]": 13700}
{"Strand": "CCTAACTACTATAGTCGTGACACATAGCTTCGTACAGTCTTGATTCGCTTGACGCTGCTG", "fluorescence intensity [a.u.]": 686}
{"Strand": "GAATTAATTCATGATCACGCTCTAATTTGTGCATAGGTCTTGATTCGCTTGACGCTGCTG", "fluorescence intensity [a.u.]": 2160}
{"Strand": "CTAATGGAGAGAGGCCACGTTGTTAGGGGAGTATTCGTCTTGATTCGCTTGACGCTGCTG", "fluorescence intensity [a.u.]": 497}
{"Strand": "GAACGACTCCCAACACACGTTTAATGTTGTACGTAGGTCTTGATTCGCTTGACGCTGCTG", "fluorescence intensity [a.u.]": 545}
{"Strand": "GAATGATATTACTCAAATGTGTCACAATTTCAATAGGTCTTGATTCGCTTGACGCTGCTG", "fluorescence intensity [a.u.]": 566}
{"Strand": "GAACACAGCGAATTTCCTCACATGTAGGGACCGTAGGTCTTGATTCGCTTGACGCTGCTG", "fluorescence intensity [a.u.]": 647}
{"Strand": "GAAGTTTCAATAGCGCACGCACTTATACGCCACTAGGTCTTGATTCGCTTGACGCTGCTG", "fluorescence intensity [a.u.]": 532}
{"Strand": "TGTACGAAGCTATAGCACGGGCGTATAGTAGTTAGGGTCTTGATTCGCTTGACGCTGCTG", "fluorescence intensity [a.u.]": 576}
{"Strand": "CTAATAACACTAACGCACGCTAGAAATGATAGCTTCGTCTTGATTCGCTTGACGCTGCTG", "fluorescence intensity [a.u.]": 539}
{"Strand": "GAACTTTTCTGGATGGGCGTGATTGTATTAGCTTAGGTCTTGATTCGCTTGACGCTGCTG", "fluorescence intensity [a.u.]": 738}
{"Strand": "CTATTAGTAACGCATAACGTGTTATCTGCGACATTCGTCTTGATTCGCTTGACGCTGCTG", "fluorescence intensity [a.u.]": 593}
{"Strand": "TGTACGAAGCTATCCCGCATGACTATAGTAGTTAGGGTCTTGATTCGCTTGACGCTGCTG", "fluorescence intensity [a.u.]": 594}
{"Strand": "CTATGCTGGTGAGGTGGCGTGGACGGTTTGGTTTTCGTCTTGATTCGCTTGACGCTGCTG", "fluorescence intensity [a.u.]": 572}
{"Strand": "GAACACCTGCAAGGGGTCGTGCCAATGACGAAATAGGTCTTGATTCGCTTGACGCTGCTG", "fluorescence intensity [a.u.]": 554}
{"Strand": "GAAGCCAAGTTTTGGAACGTGGTATAATAGGCTTAGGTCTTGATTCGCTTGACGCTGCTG", "fluorescence intensity [a.u.]": 552}
{"Strand": "CTAGGCTTAGATTTTCATGTGAAAAGATAATGTTTCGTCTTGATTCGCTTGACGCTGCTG", "fluorescence intensity [a.u.]": 533}
{"Strand": "TGTACGAAGCTATGCGTCGTGCGTATAGTAGTTAGGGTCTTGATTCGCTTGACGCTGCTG", "fluorescence intensity [a.u.]": 490}
{"Strand": "CTACAATACGTAAACAACGTGCGAAAATATCTATTCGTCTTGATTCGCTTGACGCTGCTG", "fluorescence intensity [a.u.]": 609}
{"Strand": "CTAAGGGTAAAAGATCACGAATAAAAAACGAACTTCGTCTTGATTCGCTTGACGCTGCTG", "fluorescence intensity [a.u.]": 559}
{"data": "Block 2", "target": "Histone acetyltransferase KAT6A, winged helix 1, GST fusion (KAT6A, Homo sapiens, UniProt Q92794, residues 1-85)", "method": "protein binding microarray", "form": "double-stranded DNA, one strand shown", "medium": "in vitro", "concentration": "not given", "setting": "8-mer, flanks averaged, mean of 2 arrays, mostly near background", "relative to": "not given", "direction": "higher = stronger binding", "Residues (chain)": "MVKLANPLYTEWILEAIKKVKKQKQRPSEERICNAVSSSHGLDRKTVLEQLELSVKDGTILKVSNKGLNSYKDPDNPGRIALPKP"}
{"Strand": "GCAGTGCC", "E-score": 0.105}
{"Strand": "AACTTTGA", "E-score": -0.246}
{"Strand": "ACCGTCGC", "E-score": 0.419}
{"Strand": "ACAGCTAG", "E-score": -0.165}
{"Strand": "GAATCGGA", "E-score": -0.00984}
{"Strand": "ATTACCAA", "E-score": -0.0491}
{"Strand": "GGCGATCA", "E-score": 0.136}
{"Strand": "ACAGGGCG", "E-score": 0.239}
{"Strand": "GCCGGGGA", "E-score": 0.304}
{"Strand": "GGGAGCCC", "E-score": 0.174}
{"Strand": "CCGTGCCA", "E-score": 0.128}
{"Strand": "GCATGCGA", "E-score": 0.169}
{"Strand": "CCACGTTA", "E-score": -0.175}
{"Strand": "AGTCCTAA", "E-score": -0.0445}
{"Strand": "ACGTAATA", "E-score": 0.0387}
{"Strand": "GACGCCCA", "E-score": 0.0511}
{"Strand": "GACAATAC", "E-score": -0.0836}
{"Strand": "AAGACTGG", "E-score": -0.0648}
{"Strand": "GTCGAGTA", "E-score": -0.018}
{"Strand": "CCGGTCTA", "E-score": -0.0165}
{"Strand": "AAACGACA", "E-score": -0.063}
{"Strand": "CAAACCCC", "E-score": -0.0702}
{"Strand": "CCTCATAC", "E-score": -0.19}
{"Strand": "CACCAGCC", "E-score": -0.0467}
{"Strand": "CGGGGATC", "E-score": 0.232}
{"data": "Block 3", "target": "CCND2, cyclin fold, Cln2 fusion (human)", "method": "yeast growth competition, sequencing", "medium": "yeast", "setting": "weak parent motif", "relative to": "not given", "direction": "higher = stronger binding", "parent": "RBL2 docking peptide (human); STTRRRLFVENDS"}
{"Change": "STTRRPLFVENDS [R6P]", "normalised enrichment score": 0.0442}
{"Change": "STTRRRLFVENLS [D12L]", "normalised enrichment score": -0.42}
{"Change": "PTTRRRLFVENDS [S1P]", "normalised enrichment score": 0.311}
{"Change": "STTRRRLFVENDQ [S13Q]", "normalised enrichment score": -0.07}
{"Change": "STTRRTLFVENDS [R6T]", "normalised enrichment score": 0.0284}
{"Change": "STTRRRLFVENTS [D12T]", "normalised enrichment score": 0.0336}
{"Change": "STTRTRLFVENDS [R5T]", "normalised enrichment score": 0.698}
{"Change": "STTRRRLFGENDS [V9G]", "normalised enrichment score": 0.195}
{"Change": "STTRRRLFVRNDS [E10R]", "normalised enrichment score": 0.12}
{"Change": "STRRRRLFVENDS [T3R]", "normalised enrichment score": 0.0731}
{"Change": "STTRRRLEVENDS [F8E]", "normalised enrichment score": 0.402}
{"Change": "STTRQRLFVENDS [R5Q]", "normalised enrichment score": 0.397}
{"Change": "STTRPRLFVENDS [R5P]", "normalised enrichment score": 0.598}
{"Change": "STTRARLFVENDS [R5A]", "normalised enrichment score": 0.0252}
{"Change": "STTRRRLFVQNDS [E10Q]", "normalised enrichment score": -0.0795}
{"Change": "YTTRRRLFVENDS [S1Y]", "normalised enrichment score": -0.00153}
{"Change": "STTRRRLKVENDS [F8K]", "normalised enrichment score": 0.288}
{"Change": "STTRRRRFVENDS [L7R]", "normalised enrichment score": 0.763}
{"Change": "STTRRRLFVENRS [D12R]", "normalised enrichment score": 0.161}
{"Change": "STTRRSLFVENDS [R6S]", "normalised enrichment score": 0.201}
{"Change": "STTRRRLAVENDS [F8A]", "normalised enrichment score": -0.157}
{"Change": "STTRRRLVVENDS [F8V]", "normalised enrichment score": -0.112}
{"Change": "STTRRRLFVENGS [D12G]", "normalised enrichment score": 0.0643}
{"Change": "STTRRALFVENDS [R6A]", "normalised enrichment score": 0.257}
{"Change": "QTTRRRLFVENDS [S1Q]", "normalised enrichment score": 0.148}
{"data": "Block 4", "target": "ABI1, truncated, D143A, DHFR fusion (Arabidopsis thaliana)", "method": "DHFR PCA, deep sequencing", "medium": "yeast", "setting": "methotrexate growth selection, single substitutions", "added": "(+)-ABA 0.11 µM", "relative to": "wild-type fitted maximum", "direction": "higher = stronger binding", "parent": "PYL1, truncated, DHFR fusion (Arabidopsis thaliana); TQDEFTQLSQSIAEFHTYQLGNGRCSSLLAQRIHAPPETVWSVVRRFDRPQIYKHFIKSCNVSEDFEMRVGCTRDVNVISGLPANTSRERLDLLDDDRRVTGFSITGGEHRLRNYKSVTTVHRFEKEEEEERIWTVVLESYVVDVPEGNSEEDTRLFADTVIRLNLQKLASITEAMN; partner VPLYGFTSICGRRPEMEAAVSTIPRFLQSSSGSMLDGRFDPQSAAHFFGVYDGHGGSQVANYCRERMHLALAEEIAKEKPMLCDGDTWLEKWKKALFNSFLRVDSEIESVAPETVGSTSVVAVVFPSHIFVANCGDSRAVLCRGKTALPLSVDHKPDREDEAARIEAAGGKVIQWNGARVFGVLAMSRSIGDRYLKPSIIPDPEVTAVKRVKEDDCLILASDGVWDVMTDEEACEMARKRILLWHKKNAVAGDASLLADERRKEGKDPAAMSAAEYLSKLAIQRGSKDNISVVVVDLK"}
{"Change": "T106R", "relative binding score": "-4.18%"}
{"Change": "L166M", "relative binding score": "11.4%"}
{"Change": "K168H", "relative binding score": "26.9%"}
{"Change": "H55Y", "relative binding score": "19.2%"}
{"Change": "Q167H", "relative binding score": "11%"}
{"Change": "L82E", "relative binding score": "8.52%"}
{"Change": "R123I", "relative binding score": "-9.24%"}
{"Change": "T154S", "relative binding score": "-4.3%"}
{"Change": "V121I", "relative binding score": "10.8%"}
{"Change": "L82H", "relative binding score": "32.8%"}
{"Change": "Q7L", "relative binding score": "26%"}
{"Change": "Q31C", "relative binding score": "4.87%"}
{"Change": "P83A", "relative binding score": "27%"}
{"Change": "M176K", "relative binding score": "14.1%"}
{"Change": "I162D", "relative binding score": "0.803%"}
{"Change": "K168S", "relative binding score": "29.4%"}
